Experimental data collected from several papers.
Protocols differ between the studies behind these lines. Values joined by “and” are separate records of one study, mostly repeats; a detail may differ. ± marks the error that the study gave.

The heart rate of COc1cc(N)c(Cl)cc1C(=O)NC1CCN(CCCOc2ccc(F)cc2)CC1OC (centres unmarked) is reported as 221 ± 0.5 beats/min (male Hartley guinea pigs, anaesthetized; intravenous, 0.3 mg/kg group, baseline before infusion).
CN(C(=O)n1cnc(-c2cccnc2)c1)C1CCCCC1 gave a concentration of 8.9 ± 0.2 ng/g (Wistar rat, midbrain; oral, 10 mg/kg/day of BIA 10-2474, 72 h, repeated 5 days).
CCC(C)n1ncn(-c2ccc(N3CCN(c4ccc(OCC5COC(Cn6cncn6)(c6ccc(Cl)cc6Cl)O5)cc4)CC3)cc2)c1=O (centres unmarked) — result for “incidence of nervous system disorders”: 0% (healthy human volunteers; oral, 200 mg, compound alone cohort).
C[C@@H](Nc1cc(F)cc(F)c1)c1cc(C(=O)N(C)C)cc2c(=O)cc(N3CCOCC3)oc12 — result for “related serious adverse events”: 0% (measured: Neutropenia; advanced solid tumour patients; oral, dose not given, dose expansion).
For C[Si](C)(C)O[Si](C)(C)C, the log KOW was 5.2 (regression; 1-octanol/water; 25 °C).
O=C(COc1ccc(Cl)cc1)NC12CC(c3nnc([C@H]4C[C@@H](OC(F)(F)F)C4)o3)(C1)C2: “treatment-emergent adverse events” 85.3% (drug-related; healthy human, both sexes; oral, dose not given, 14 days, multiple ascending dose, all doses).
The SHBG level of N#Cc1ccc2c(c1)[C@H]1CCCN(C(=O)c3ccc4[nH]cnc4c3)[C@H]1C2 is reported as 51.4 nmol/L (human females; 80 mg, day 7).
With CCn1c(C(=O)N(C2CC2)C2CC2)cc2c3c(ncn3C)c(Nc3cc(C)n(C)n3)nc21 the plasma concentration was 181 ng/mL (cancer patients; oral, 200 mg single dose, day 1, 24.0 h).
CCCOc1ccc(NC(=O)CN2CCN(C)CC2)cc1-c1nc(CC)c(CC)c(=O)[nH]1: “hot flash incidence” 13.3% (healthy Chinese men; 10 mg, added: alcohol 0.5 g/kg).
The heart rate of CC(C)(C)c1ccc(C(O)CCCN2CCC(C(O)(c3ccccc3)c3ccccc3)CC2)cc1 (centres unmarked) is reported as 209 ± 0.1 beats/min (male Hartley guinea pigs, anaesthetized; intravenous, 0.3 mg/kg over 10 min, after infusion).
The uptake of [18F]c1ccc(-c2ccc3c(c2)[nH]c2ccncc23)cn1 is reported as 0.287 ± 0.097 SUV (ex vivo biodistribution; APP/PS1 Alzheimer mice, caudate nucleus; intravenous, 30 min).
Under “QT change from baseline”, CC[C@H](C)[C@H](NC(=O)[C@H](Cc1ccccc1)NC(=O)[C@H](CCC(=O)O)NC(=O)[C@H](CCCCNC(=O)COCCOCCNC(=O)COCCOCCNC(=O)CC[C@H](NC(=O)CCCCCCCCCCCCCCCCC(=O)O)C(=O)O)NC(=O)[C@H](C)NC(=O)[C@H](C)NC(=O)[C@H](CCC(N)=O)NC(=O)CNC(=O)[C@H](CCC(=O)O)NC(=O)[C@H](CC(C)C)NC(=O)[C@H](Cc1ccc(O)cc1)NC(=O)[C@H](CO)NC(=O)[C@H](CO)NC(=O)[C@@H](NC(=O)[C@H](CC(=O)O)NC(=O)[C@H](CO)NC(=O)[C@@H](NC(=O)[C@H](Cc1ccccc1)NC(=O)[C@@H](NC(=O)CNC(=O)[C@H](CCC(=O)O)NC(=O)C(C)(C)NC(=O)[C@@H](N)Cc1cnc[nH]1)[C@@H](C)O)[C@@H](C)O)C(C)C)C(=O)N[C@@H](C)C(=O)N[C@@H](Cc1c[nH]c2ccccc12)C(=O)N[C@@H](CC(C)C)C(=O)N[C@H](C(=O)N[C@@H](CCCNC(=N)N)C(=O)NCC(=O)N[C@@H](CCCNC(=N)N)C(=O)NCC(=O)O)C(C)C is recorded as -22.7 ms (12-lead Holter ECG; healthy humans; subcutaneous, 1.5 mg once weekly, 48 h, steady state; relative to: placebo).
CN[C@@H]1COc2c(S(=O)(=O)NC(=O)Nc3c4c(cc5c3CCC5)CCC4)cnn2C1: “predose plasma concentration” 5780 ng/mL (human, plasma; oral, 900 mg twice daily, D7).
With Cc1ccc(N(C)C(=O)/C=C/c2ccco2)cc1 the licking latency was 14.9 ± 0.2 s (hot plate test; mice; oral, 30 mg/kg daily for 7 days, 60 min, day 8).
With CCN1/C(=C/C(C)=O)Sc2ccc(F)cc21 the PR interval was 90 ± 4 ms (cynomolgus monkey; oral, 10 mg/kg, 0.5 h post-dose).
The blood CHCM of CCc1cc(C(=O)NC)c2nccc(N3CCc4c(cc(Cn5ccnc5)cc4-c4cn(C)nc4C(F)(F)F)C3=O)c2c1 is reported as 307 ± 5.2 g/L (Sprague Dawley rats; oral, 50 mg/kg once daily, 7 days).
The Tmax of C=CCn1c(=O)c2cnc(Nc3ccc(N4CCN(C)CC4)cc3)nc2n1-c1cccc(C(C)(C)O)n1 is reported as 2 h (human; oral, 250 mg once daily, cycle 1 day 17, added: durvalumab 1500 mg IV; median).
CCCC(CCC)C(=O)Oc1cccc(C(O)CCN)c1.O=CO (centres unmarked) — result for “photopic S-cone ERG b-wave”: 22.1 µV and 13 µV and 20.6 µV and 17.3 µV and 14.2 µV and 19.2 µV and 12.6 µV and 15.1 µV (Abca4-/-Rdh8-/- mice, photic damage; intraperitoneal, 10 mg/kg, 7 days, flash intensity 1).
Under CSF concentration, O=C(O)CCc1cc(O)cc(O)c1 is recorded as “not detected” (human CSF; concentration not given, mean).
For CCOc1c([C@H](C)n2nc(C)c3c(N)ncnc32)cc(Cl)c(F)c1[C@@H]1CNC(=O)C1, “observations ΔQTcF >30 ≤60 ms” read 3% (ECG; previously treated B-cell malignancy patients; oral, 20 mg once daily, baseline QTcF ≤450 ms).
The plasma concentration of CC(=O)N(C)C1CCN(c2cc(F)cc(NC(=O)c3cc4c(F)ccc(C)c4[nH]3)c2)C1 (centres unmarked) is reported as 56.1 ng/mL (CD1 mouse, plasma; intravenous, 1 mg/kg, 2 h).
CN1CC[C@@H](NC(=O)Nc2ccc(C#N)cc2)C[C@@H]1c1nc2ccccc2[nH]1: “peripheral volume Vp/F” 239 L (human cancer patients, plasma; oral, dose not given, population PK base model).
O=C(O)CCC(=O)O.[2H]C([2H])([2H])Oc1cc(C)c2[nH]ccc2c1CN1CC[C@@H](C2CC2)C[C@H]1c1ccc(C(=O)O)cc1 gave an AUC(0-tau) of 115 µg·h/mL (human, plasma; 300 mg once daily, day 10, multiple ascending dose, geometric mean).
Under “treatment-emergent adverse events”, O=C(Nc1nc2cccc(-c3ccc(CN4CCS(=O)(=O)CC4)cc3)n2n1)C1CC1 is recorded as 0% (measured: blood calcium increased; rheumatoid arthritis patients; oral, 150 mg once daily, 4 weeks, any relatedness).
The pharmacodynamic-related TEAEs of CCO is reported as 50% (human; concentration not given).
Under “patients with adverse event”, COc1cc(Nc2ncc3c(n2)-c2ccc(Cl)cc2C(c2c(F)cccc2OC)=NC3)ccc1C(=O)O is recorded as 8% (measured: Diarrhea, grade 2; cancer patients, phase 1/2; oral, dose not given, added: pembrolizumab).
For O=C1CC[C@H](N2Cc3cc(N4CCN(CC5CCN(c6ccc([C@@H]7c8ccc(O)cc8CC[C@@H]7c7ccccc7)cc6)CC5)CC4)ccc3C2=O)C(=O)N1, the recovery was 109% (rapid equilibrium dialysis; SD rat hepatocytes; 2.5 µM, 6 h).
Under CSF concentration, O=C(O)CNC(=O)c1ccc(O)cc1 is recorded as “not detected” (human CSF; concentration not given, mean).
COc1cc(C(=O)NC2CCN(C)CC2)c(F)cc1Nc1ncc(C(F)(F)F)c(Oc2cccc3c2C(=O)N(C)C3)n1 gave a dose-normalised AUC(0-inf) of 52.7 nmol·h/L per mg (human patients, plasma; oral, 10 mg single dose, geometric mean).
O=C(O)CSc1nnc(Br)n1-c1ccc(C2CC2)c2ccccc12 has a body weight of 21.5 g and 28 g and 28.2 g and 26.7 g and 24.9 g and 25.3 g (KM mouse, chronic hyperuricaemia model; dose not given, day 2).
O=C1NCCc2nc(OCc3cccc(F)c3)ccc21: “leg weakness score” 0.2 (modified Irwin test; Sprague-Dawley rat, male; oral, 100 mg/kg, 4 h; higher = stronger effect).
CNC(=O)c1ccc(-c2cnc3ncc(Cc4ccc5ncccc5c4)n3n2)cc1F — result for “AST increased incidence”: 11% (other cancer patients; oral, 600 mg twice daily, all grades RP2D expansion).
For O=C(CCCN1CCC(O)(c2ccc(Cl)cc2)CC1)c1ccc(F)cc1, the heart rate was 231 ± 0.4 beats/min (male Hartley guinea pigs, anaesthetized; intravenous, 0.1 mg/kg group, baseline before infusion).
NCCCCCNCc1ccc(CNC(=O)c2csc3nc[nH]c(=O)c23)cc1 gave an EC50 of > 100 µM (haemolysis; human red blood cells; 1 h, 37 °C).
C=CCN1CC(=O)N2[C@@H](Cc3ccc(O)cc3F)C(=O)N(Cc3cccc(N4CC(N5CCN(CC)CC5)C4)n3)C[C@@H]2N1C(=O)NCc1ccccc1 — result for “treatment-related adverse events”: 80% (measured: Nausea; advanced solid tumour patients; oral, 120 mg twice daily, expansion part, any grade).
Cc1ccc(Sc2ccccc2N2CCNCC2)c(C)c1: “participants with TEAE” 0% (measured: thermal burn; healthy adult women; oral, 5 mg daily, 12 days).
For CC[C@H](C)[C@H](NC(=O)[C@H](Cc1ccccc1)NC(=O)[C@H](CCC(=O)O)NC(=O)[C@H](CCCCNC(=O)COCCOCCNC(=O)COCCOCCNC(=O)CC[C@H](NC(=O)CCCCCCCCCCCCCCCCC(=O)O)C(=O)O)NC(=O)[C@H](C)NC(=O)[C@H](C)NC(=O)[C@H](CCC(N)=O)NC(=O)CNC(=O)[C@H](CCC(=O)O)NC(=O)[C@H](CC(C)C)NC(=O)[C@H](Cc1ccc(O)cc1)NC(=O)[C@H](CO)NC(=O)[C@H](CO)NC(=O)[C@@H](NC(=O)[C@H](CC(=O)O)NC(=O)[C@H](CO)NC(=O)[C@@H](NC(=O)[C@H](Cc1ccccc1)NC(=O)[C@@H](NC(=O)CNC(=O)[C@H](CCC(=O)O)NC(=O)C(C)(C)NC(=O)[C@@H](N)Cc1cnc[nH]1)[C@@H](C)O)[C@@H](C)O)C(C)C)C(=O)N[C@@H](C)C(=O)N[C@@H](Cc1c[nH]c2ccccc12)C(=O)N[C@@H](CC(C)C)C(=O)N[C@H](C(=O)N[C@@H](CCCNC(=N)N)C(=O)NCC(=O)N[C@@H](CCCNC(=N)N)C(=O)NCC(=O)O)C(C)C, “heart rate change” read 1.2 beats/min (hypoglycaemic clamp; type 2 diabetes patients; dose not given, plasma glucose 5.5 to 3.5 mmol/L).
CNC(=O)c1ccc(-c2cnc3ncc(Cc4ccc5ncccc5c4)n3n2)cc1F — result for “Anaemia dose reduction/interruption”: 1% (Japanese patients; oral, 400 mg, any grade).
Under CSF concentration, COc1cc(/C=C/C(=O)OC2CC(O)(C(=O)O)CC(O)C2O)ccc1O (centres unmarked) is recorded as “not detected” (human CSF; concentration not given, mean).
For COc1ccc2[nH]c([S@+]([O-])Cc3ncc(CO)c(OC)c3C)nc2c1, the AUC(0-8 h) was 0.153 µM·h (human, dried plasma spots; 5 mg racemic omeprazole, added: fluvoxamine and voriconazole).
Under “treatment-related TEAE incidence”, C[C@@H](N)C1CCN(S(=O)(=O)c2cccc3cnccc23)CC1 is recorded as 33.3% (healthy volunteers; dose not given, fasted,, all doses).
Under “adverse events grade 3”, CC(C)C[C@H](NC(=O)CNC(=O)c1cc(Cl)ccc1Cl)B(O)O is recorded as 0% (newly diagnosed multiple myeloma patients; oral, dose not given, Fatigue, maintenance).
For CC(C)n1c(Nc2cccnc2)nc2cnc(Nc3ccc(N4CCN(C)CC4)cc3)nc21, “subjects with adverse event” read 7.1% (measured: γ-glutamyltransferase increased; healthy male subjects; oral, 100 mg, study, added: itraconazole).
Under “urinary magnesium excretion change”, Cc1ccc([C@@H]2O[C@H](CO)[C@@H](O)[C@H](O)[C@H]2O)cc1Cc1ccc(-c2ccc(F)cc2)s1 is recorded as 10.9 mg (Japanese type 2 diabetes patients; 400 mg, day 18, 24 h urine collection; relative to: baseline).

For quick reference, copied from above:
The heart rate of COc1cc(N)c(Cl)cc1C(=O)NC1CCN(CCCOc2ccc(F)cc2)CC1OC (centres unmarked) is reported as 221 ± 0.5 beats/min (male Hartley guinea pigs, anaesthetized; intravenous, 0.3 mg/kg group, baseline before infusion).
For CC[C@H](C)[C@H](NC(=O)[C@H](Cc1ccccc1)NC(=O)[C@H](CCC(=O)O)NC(=O)[C@H](CCCCNC(=O)COCCOCCNC(=O)COCCOCCNC(=O)CC[C@H](NC(=O)CCCCCCCCCCCCCCCCC(=O)O)C(=O)O)NC(=O)[C@H](C)NC(=O)[C@H](C)NC(=O)[C@H](CCC(N)=O)NC(=O)CNC(=O)[C@H](CCC(=O)O)NC(=O)[C@H](CC(C)C)NC(=O)[C@H](Cc1ccc(O)cc1)NC(=O)[C@H](CO)NC(=O)[C@H](CO)NC(=O)[C@@H](NC(=O)[C@H](CC(=O)O)NC(=O)[C@H](CO)NC(=O)[C@@H](NC(=O)[C@H](Cc1ccccc1)NC(=O)[C@@H](NC(=O)CNC(=O)[C@H](CCC(=O)O)NC(=O)C(C)(C)NC(=O)[C@@H](N)Cc1cnc[nH]1)[C@@H](C)O)[C@@H](C)O)C(C)C)C(=O)N[C@@H](C)C(=O)N[C@@H](Cc1c[nH]c2ccccc12)C(=O)N[C@@H](CC(C)C)C(=O)N[C@H](C(=O)N[C@@H](CCCNC(=N)N)C(=O)NCC(=O)N[C@@H](CCCNC(=N)N)C(=O)NCC(=O)O)C(C)C, “heart rate change” read 1.2 beats/min (hypoglycaemic clamp; type 2 diabetes patients; dose not given, plasma glucose 5.5 to 3.5 mmol/L).
For COc1ccc2[nH]c([S@+]([O-])Cc3ncc(CO)c(OC)c3C)nc2c1, the AUC(0-8 h) was 0.153 µM·h (human, dried plasma spots; 5 mg racemic omeprazole, added: fluvoxamine and voriconazole).
